Results of several laboratories.
Compare with care: the assays were run in different laboratories.
Organism: Staphylococcus aureus

| SMILES | assay | system | setting | MIC |
| --- | --- | --- | --- | --- |
| COc1ccc2ccc(O)c(/C=N/[C@H]3CCCC[C@H]3/N=C/c3c(O)cccc3F)c2c1 | bacterial growth, broth microdilution | vancomycin-intermediate |  | > 40 µM |
| CC(C)C[C@H](NC(=O)[C@H](Cc1c[nH]c2ccccc12)NC(=O)[C@H](CC(C)C)NC(=O)[C@@H](NC(=O)[C@H](CC(C)C)NC(=O)[C@H](CCCNC(=N)N)NC(=O)[C@@H](N)CCCNC(=N)N)[C@@H](C)O)C(=O)N[C@H](C(=O)N[C@@H](CC(C)C)C(=O)N[C@@H](CCCNC(=N)N)C(=O)N[C@@H](CCCNC(=N)N)C(N)=O)[C@@H](C)O |  | MRSA 43300 | 24 h, 37 °C | 4 µM |
| CC[C@H](C)CCCCC(=O)N[C@@H](CCN)C(=O)N[C@H](C(=O)N[C@@H](CCN)C(=O)N[C@H]1CCNC(=O)[C@H]([C@@H](C)O)NC(=O)[C@H](CCN)NC(=O)[C@H](CCN)NC(=O)[C@H](CC(C)C)NC(=O)[C@@H](Cc2ccccc2)NC(=O)[C@H](CCN)NC1=O)[C@@H](C)O | broth microdilution | ATCC 6538 | 24 h, 37 °C | 32 µg/mL |
| CC[C@H](C)[C@H](NC(=O)[C@H](Cc1c[nH]c2ccccc12)NC(=O)[C@@H](NC(=O)[C@H](Cc1ccccc1)NC(=O)[C@@H]1CCCN1C(=O)[C@@H](NC(=O)[C@H](C)N)[C@@H](C)CC)[C@@H](C)CC)C(=O)N[C@@H](Cc1ccccc1)C(=O)N[C@@H](CCCNC(=N)N)C(=O)N[C@@H](CC(C)C)C(=O)N[C@@H](CC(C)C)C(=O)N[C@@H](CCCNC(=N)N)C(=O)N[C@@H](CCCCN)C(=O)NCC(N)=O | broth microdilution | ATCC 19609 | 18 h, 37 °C | 3.75 µM |
| CC[C@H](C)[C@H](NC(=O)[C@H](CC(C)C)NC(=O)[C@H](CCCNC(=N)N)NC(=O)[C@@H](N)CCCNC(=N)N)C(=O)N[C@@H](CCCNC(=N)N)C(=O)N[C@@H](CCCCN)C(=O)N[C@@H](CC(C)C)C(=O)N[C@@H](CCCCN)C(=O)NCC(=O)N1CCC[C@H]1C(=O)N[C@@H](CCCCN)C(=O)N[C@H](C(=O)N[C@@H](Cc1ccc(O)cc1)C(=O)N[C@@H](CC(C)C)C(=O)N[C@@H](Cc1ccc(O)cc1)C(=O)N[C@@H](Cc1ccccc1)C(=O)N[C@@H](CCCCN)C(=O)N[C@@H](CC(C)C)C(=O)N[C@@H](CCC(N)=O)C(=O)N[C@@H](CC(C)C)C(=O)N[C@@H](CC(C)C)C(=O)N[C@@H](CCCCN)C(=O)N[C@@H](CCCCN)C(N)=O)[C@@H](C)CC |  | CCARM 3090, methicillin-resistant, Mueller-Hinton broth | 24 h | 16 µM |
| CC[C@H](C)[C@H](NC(=O)CN)C(=O)N[C@@H](C)C(=O)N[C@@H](CC(=O)O)C(=O)N[C@@H](C)C(=O)N[C@H](C(=O)N[C@@H](CCCCN)C(=O)N[C@@H](CCCCN)C(=O)N[C@H](C(=O)N[C@@H](C)C(=O)N[C@@H](CCCCN)C(=O)N[C@@H](C)C(=O)N[C@@H](CC(C)C)C(=O)NCC(N)=O)[C@@H](C)CC)[C@@H](C)CC |  | ATCC 29213, Mueller-Hinton broth | 12 h, 37 °C | 8 µg/mL |
| CN[C@H](CC(C)C)C(=O)N[C@H]1C(=O)N[C@@H](CC(N)=O)C(=O)N[C@H]2C(=O)N[C@H]3C(=O)N[C@H](C(=O)N[C@H](C(=O)O)c4cc(O)cc(O)c4-c4cc3ccc4O)[C@H](O)c3ccc(c(Cl)c3)Oc3cc2cc(c3O[C@@H]2O[C@H](CO)[C@@H](O)[C@H](O)[C@H]2O[C@H]2C[C@](C)(N)[C@H](O)[C@H](C)O2)Oc2ccc(cc2Cl)[C@H]1O | broth microdilution | VISA LIM-2, tryptic soy broth | 20 to 24 h, 37 °C, 0.002% polysorbate 80 | 4 µg/mL |
| O=C(O)[C@]1(Cc2cccc(Nc3nccs3)n2)CC[C@@H](Oc2cccc(Cl)c2F)CC1 |  | NCTC 8325 |  | > 30 µM |
| CC[C@H](C)[C@H](NC(=O)[C@H](CC(=O)O)NC(=O)[C@@H](NC(=O)[C@H](CC(N)=O)NC(=O)[C@@H]1CCCN1C(=O)[C@@H](NC(=O)[C@@H](N)Cc1ccccc1)[C@@H](C)O)[C@@H](C)O)C(=O)N[C@H](C(=O)N[C@H](C(=O)N[C@@H](CCCNC(=N)N)C(=O)N[C@H](C(=O)N[C@H](C(=O)NCC(=O)NCC(=O)NCC(=O)NCC(=O)NCC(=O)N[C@@H](CC(C)C)C(=O)N[C@@H](CCCCN)C(=O)N[C@@H](CCCCN)C(=O)N[C@@H](CC(C)C)C(=O)N[C@@H](CC(C)C)C(=O)N[C@@H](CC(C)C)C(=O)N[C@@H](CC(C)C)C(=O)N[C@@H](CC(C)C)C(=O)N[C@@H](CCCCN)C(=O)N[C@@H](CCCCN)C(=O)N[C@@H](CC(C)C)C(=O)NCC(=O)O)[C@@H](C)O)[C@@H](C)O)[C@@H](C)O)[C@@H](C)CC |  | USA300 MRSA, Mueller-Hinton broth | 18 to 24 h, 37 °C | > 256 µg/mL |
| CC[C@H](C)[C@H](NC(=O)[C@H](CO)NC(=O)CNC(=O)[C@H](CCCCN)NC(=O)[C@@H](NC(=O)[C@H](CC(N)=O)NC(=O)[C@H](Cc1ccccc1)NC(=O)[C@H](CC(N)=O)NC(=O)[C@@H](NC(=O)[C@H](CCCNC(=N)N)NC(=O)[C@@H]1CCCN1C(=O)[C@H](CCCNC(=N)N)NC(=O)[C@@H](NC(=O)[C@H](CCCNC(=N)N)NC(=O)[C@H](CCCNC(=N)N)NC(=O)[C@@H](NC(=O)[C@H](CCCNC(=N)N)NC(=O)[C@H](CO)NC(=O)[C@H](CC(C)C)NC(=O)[C@H](Cc1ccccc1)NC(=O)[C@H](CCCNC(=N)N)NC(=O)CNC(=O)[C@H](Cc1ccccc1)NC(=O)[C@H](CCCNC(=N)N)NC(=O)CNC(=O)[C@H](CCCNC(=N)N)NC(=O)[C@H](CCC(N)=O)NC(=O)[C@@H](NC(=O)[C@@H](N)CC(C)C)C(C)C)[C@@H](C)CC)[C@@H](C)CC)[C@@H](C)CC)[C@@H](C)CC)C(=O)O | broth microdilution | ATCC 25923, Mueller-Hinton broth | 16 to 20 h, 37 °C | 0.311 µM |
| CC[C@H](C)[C@H](NC(=O)[C@H](CC(C)C)NC(=O)[C@H](CCCNC(=N)N)NC(=O)[C@@H](N)CCCNC(=N)N)C(=O)N[C@@H](CCCNC(=N)N)C(=O)N[C@H](C(=O)N[C@@H](CC(=O)O)C(=O)N[C@H](C(=O)NCC(=O)N1CCC[C@H]1C(=O)N[C@H](C(=O)N[C@H](C(=O)N[C@@H](Cc1ccc(O)cc1)C(=O)N[C@@H](CC(=O)O)C(=O)N[C@@H](Cc1ccc(O)cc1)C(=O)N[C@@H](Cc1ccccc1)C(=O)N[C@@H](CCCCN)C(=O)N[C@@H](CC(=O)O)C(=O)N[C@@H](CCC(N)=O)C(=O)N[C@@H](CC(C)C)C(=O)N[C@@H](CC(C)C)C(=O)N[C@@H](CCCCN)C(=O)N[C@@H](CCCCN)C(N)=O)[C@@H](C)CC)[C@@H](C)CC)[C@@H](C)O)[C@@H](C)O | broth microdilution | KCTC 1621, Mueller-Hinton broth | 24 h, 37 °C | > 128 µM |
| Cc1ccc2[nH]c3c(c2c1)CCCC3NCCc1ccc(Br)cc1 (stereo not shown) | broth microdilution | SG511 |  | 4 µg/mL |
| CC(C)C[C@@H](NC(=O)CNC(=O)[C@@H](CCCCN)NC(=O)[C@@H](CC(C)C)NC(=O)[C@@H](CCCCN)NC(=O)[C@@H](CCCNC(=N)N)NC(=O)[C@@H](CC(C)C)NC(=O)[C@@H](CC(C)C)NC(=O)[C@@H](CCCNC(=N)N)NC(=O)[C@H](N)CCCNC(=N)N)C(=O)N[C@H](CCCCN)C(=O)N[C@H](CCCCN)C(=O)N[C@H](Cc1ccc(O)cc1)C(=O)N[C@H](CC(C)C)C(=O)N[C@H](Cc1ccc(O)cc1)C(=O)N[C@H](Cc1ccccc1)C(=O)N[C@H](CCCCN)C(=O)N[C@H](CC(C)C)C(=O)N[C@H](CCC(N)=O)C(=O)N[C@H](CC(C)C)C(=O)N[C@H](CC(C)C)C(=O)N[C@H](CCCCN)C(=O)N[C@H](CCCCN)C(N)=O |  | CCARM 3095, methicillin-resistant, Mueller-Hinton broth | 24 h | 4 µM |
| CCCCCCC#Cc1cncc(-c2nnc(SCc3cc(C(F)(F)F)cc(C(F)(F)F)c3)n2CCCN)c1 | broth microdilution | Mu50 MRSA VISA | 18 to 24 h, 37 °C | 4 µg/mL |
| CC[C@H](C)[C@H](NC(=O)[C@H](CC(C)C)NC(=O)[C@H](CCCNC(=N)N)NC(=O)[C@@H](N)CCCNC(=N)N)C(=O)N[C@@H](CCCNC(=N)N)C(=O)N[C@@H](CCCCN)C(=O)N[C@@H](CC(C)C)C(=O)N[C@@H](CCCCN)C(=O)NCC(=O)N[C@@H](CC(C)C)C(=O)N[C@@H](CCCCN)C(=O)N[C@@H](CCCCN)C(=O)N[C@@H](Cc1ccc(O)cc1)C(=O)N[C@@H](CC(C)C)C(=O)N[C@@H](Cc1ccc(O)cc1)C(=O)N[C@@H](Cc1ccccc1)C(=O)N[C@@H](CCCCN)C(=O)N[C@@H](CC(C)C)C(=O)N[C@@H](CCC(N)=O)C(=O)N[C@@H](CC(C)C)C(=O)N[C@@H](CC(C)C)C(=O)N[C@@H](CCCCN)C(=O)N[C@@H](CCCCN)C(N)=O |  | KCTC 1621, Mueller-Hinton broth | added: 1 mM MgCl2 | 8 µM |
| CCCCCCCNC(=O)CP(=O)(O)O |  | ATCC 33591 methicillin-resistant |  | > 200 µg/mL |
| CC[C@H](C)[C@H](N)C(=O)N[C@@H](CC(C)C)C(=O)NCC(=O)N[C@H](CCCNC(=N)N)C(=O)N[C@H](C(=O)N[C@@H](Cc1c[nH]c2ccccc12)C(=O)N[C@@H](CCCCN)C(=O)NCC(=O)N[C@H](C(=O)N[C@@H](CCCCN)C(=O)N[C@@H](CC(=O)O)C(=O)N[C@H](C(=O)N[C@@H](CC(C)C)C(N)=O)[C@@H](C)CC)[C@@H](C)CC)[C@@H](C)CC | broth microdilution | ATCC 25923, Mueller-Hinton broth | 16 h, 37 °C | 6.25 µM |
| C/C(=C\C(=O)OCCCCCCCC(=O)Nc1c2sscc-2[nH]c1=O)[C@@H](O)[C@@H]1OC[C@H](C/C=C/[C@@H](C)[C@H](C)O)[C@@H](O)[C@H]1O |  | MRSA COL, IleRS V588F/V631F mutant |  | 0.08 µM |
| CC[C@H](C)[C@H](N)C(=O)N[C@@H](CO)C(=O)N[C@@H](Cc1ccccc1)C(=O)N[C@@H](CC(C)C)C(=O)NCC(=O)N[C@@H](CO)C(=O)N[C@@H](CCCCN)C(=O)N[C@H](C(=O)N[C@H](C(=O)N[C@H](C(=O)N[C@@H](CC(C)C)C(=O)N[C@@H](CC(C)C)C(=O)N[C@@H](CCCCN)C(=O)N[C@@H](CCCNC(=N)N)C(=O)N[C@@H](CCCNC(=N)N)C(=O)N[C@@H](CCCCN)C(=O)N[C@@H](CCCNC(=N)N)C(=O)N[C@@H](CCCCN)C(=O)N[C@@H](CCCNC(=N)N)C(=O)N[C@@H](CCCCN)C(N)=O)C(C)C)C(C)C)C(C)C | broth microdilution |  | 24 h, 37 °C | 16 µM |

Repeated from above:
| SMILES | assay | system | setting | MIC |
| --- | --- | --- | --- | --- |
| CC[C@H](C)[C@H](NC(=O)[C@H](CC(C)C)NC(=O)[C@H](CCCNC(=N)N)NC(=O)[C@@H](N)CCCNC(=N)N)C(=O)N[C@@H](CCCNC(=N)N)C(=O)N[C@H](C(=O)N[C@@H](CC(=O)O)C(=O)N[C@H](C(=O)NCC(=O)N1CCC[C@H]1C(=O)N[C@H](C(=O)N[C@H](C(=O)N[C@@H](Cc1ccc(O)cc1)C(=O)N[C@@H](CC(=O)O)C(=O)N[C@@H](Cc1ccc(O)cc1)C(=O)N[C@@H](Cc1ccccc1)C(=O)N[C@@H](CCCCN)C(=O)N[C@@H](CC(=O)O)C(=O)N[C@@H](CCC(N)=O)C(=O)N[C@@H](CC(C)C)C(=O)N[C@@H](CC(C)C)C(=O)N[C@@H](CCCCN)C(=O)N[C@@H](CCCCN)C(N)=O)[C@@H](C)CC)[C@@H](C)CC)[C@@H](C)O)[C@@H](C)O | broth microdilution | KCTC 1621, Mueller-Hinton broth | 24 h, 37 °C | > 128 µM |
